Experimental data collected from several papers.
Protocols differ between the studies behind these lines.
Cell line: PANC-1

Structure (SMILES)	test	setting	IC50
N=C(N/N=C/c1ccc2ccc3cccc4ccc1c2c34)N/N=C/c1ccc2ccc3cccc4ccc1c2c34	cell growth or viability, crystal violet	72 h	240 µM
Cc1c(-c2cccc(C3=NCCN3)c2)oc(-c2cccc(C3=NCCN3)c2)c1C	cell growth or viability, SRB		0.5 µM
CCCCn1cc(C(=O)O)c(=O)c2cc(F)c(Nc3ccc(OC)cc3)c([N+](=O)[O-])c21	cell growth, sulforhodamine B	72 h	> 200 µg/mL
CCC(CC)c1nc(-c2ccc(O)cc2O)cs1	cell growth or viability, resazurin	72 h	8.36 µM
C=C1CC[C@@H]2O[C@@]2(C)CC[C@H]2[C@H]1C[C@]2(C)C(=O)/C=C/C(C)(O)CO (some centres unmarked)	cell growth or viability, CCK-8	72 h	6.03 µM
c1ccc(-c2cc(-c3ccc(-n4cc(-c5ccc(-c6cccs6)s5)nn4)cc3)cc(-c3ccccn3)n2)nc1	cell growth or viability, MTS	72 h	2.22 µM
COc1ccc2c(c1)C(=C1Nc3ccccc3C1=NOCC(O)CO)C(=O)N2 (centres unmarked)	cell growth or viability, MTS	48 h	0.76 µM
N=C(N/N=C/c1ccc[nH]1)N/N=C/c1ccc[nH]1	cell growth or viability, crystal violet	72 h	4.1 µM
CCCCCCCCn1c2ccccc2c2cc(-c3cn(-c4ccc(-c5cc(-c6ccccn6)nc(-c6ccccn6)c5)cc4)nn3)ccc21	cell growth or viability, MTS	72 h	3.59 µM
Cc1nc(Nc2ncc(C(=O)Nc3c(C)cccc3Cl)s2)cc(N2CCN(CCOC(=O)[C@@H](N)CCCNC(=N)N)CC2)n1	cell growth or viability, MTT	72 h	2.06 µM
CCCCCCCCCCCCCCOC(=O)Nc1ccn([C@@H]2O[C@H](CO)[C@@H](O)C2(F)F)c(=O)n1	cell growth or viability, MTT	48 h	12 µM
N=C(N/N=C/c1cc2ccccc2[nH]1)N/N=C/c1cc2ccccc2[nH]1	cell growth or viability, crystal violet	72 h	7.01 µM
COc1cccc2c1C(=O)c1c(O)c3c(c(O)c1C2=O)CC(O)(C(CO)=NNC(=O)CCCCC(=O)NNC(=O)CCCc1ccc(I)cc1)CC3OC1CC(N)C(O)C(C)O1 (centres unmarked)	cell growth or viability, resazurin	72 h	2.18 µM
Cc1nc(Nc2ncc(C(=O)Nc3c(C)cccc3Cl)s2)cc(N2CCN(CCOC(=O)[C@@H](N)CS)CC2)n1	cell growth or viability, MTT	72 h	> 100 µM
N=C(N/N=C/c1ncc[nH]1)N/N=C/c1ncc[nH]1	cell growth or viability, crystal violet	72 h	9.7 µM
CCCCCCCCCCCCCCCC(=O)OCCN1CCN(c2cc(Nc3ncc(C(=O)Nc4c(C)cccc4Cl)s3)nc(C)n2)CC1	cell growth or viability, MTT	72 h	0.72 µM
N=C(N/N=C/c1ccc(F)cc1)N/N=C/c1ccc(F)cc1	cell growth or viability, crystal violet	72 h	28.6 µM
C=C1CCC(O)C(C)=CCC2C1CC2(C)O (centres unmarked)	cell growth or viability, CCK-8	72 h	> 50 µM
N=C(N/N=C/c1cc(C(F)(F)F)cc(C(F)(F)F)c1)N/N=C/c1cc(C(F)(F)F)cc(C(F)(F)F)c1	cell growth or viability, crystal violet	72 h	58.2 µM
C=C1CC(O)CC(C)=CCC2C1CC2(C)O (centres unmarked)	cell growth or viability, CCK-8	72 h	> 50 µM

Repeated from above:
Structure (SMILES)	test	setting	IC50
CCC(CC)c1nc(-c2ccc(O)cc2O)cs1	cell growth or viability, resazurin	72 h	8.36 µM
C=C1CC[C@@H]2O[C@@]2(C)CC[C@H]2[C@H]1C[C@]2(C)C(=O)/C=C/C(C)(O)CO (some centres unmarked)	cell growth or viability, CCK-8	72 h	6.03 µM
